# Assay results of several laboratories.
# Parts stem from different laboratories: compare values within a part only. Changes are numbered by the printed parent chain.

# Block 1
# Target: CCNB2, cyclin fold, Cln2 fusion (human)
# Technique: yeast growth competition, sequencing
# Medium: yeast
# Setting: weak parent motif
# Baseline: not given
# Reading: higher = stronger binding
# Starting sequence: DOT1L docking peptide (human); SEAKRRIVFTITT; partner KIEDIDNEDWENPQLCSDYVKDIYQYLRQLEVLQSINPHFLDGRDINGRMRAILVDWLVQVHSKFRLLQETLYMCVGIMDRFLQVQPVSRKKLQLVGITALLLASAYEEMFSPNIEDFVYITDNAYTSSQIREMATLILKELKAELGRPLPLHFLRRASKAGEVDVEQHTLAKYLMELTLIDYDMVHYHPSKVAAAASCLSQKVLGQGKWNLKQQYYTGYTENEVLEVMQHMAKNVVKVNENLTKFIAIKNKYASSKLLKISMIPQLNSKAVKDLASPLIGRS
Substitution,normalised enrichment score
SEAKRRAVFTITT [I7A],0.0472
SEAKRRIVFAITT [T10A],0.181
SEAARRIVFTITT [K4A],0.131
AEAKRRIVFTITT [S1A],0.609
SEAKRRIVATITT [F9A],0.479
SEAKRRIVFTIAT [T12A],0.337

# Block 2
# Target: Phosphate system positive regulatory protein PHO4, full length, GST-tagged (PHO4, Saccharomyces cerevisiae, UniProt P07270, residues 1-312)
# Technique: competition protein-binding microarray
# Form: double-stranded DNA, one strand shown
# Medium: in vitro
# Concentration: 2 µM
# Setting: whole 60-bp probe, lowest competitor level
# Added: Cbf1 competitor, 0.05 µM
# Reading: higher = stronger binding
# Target sequence (chain): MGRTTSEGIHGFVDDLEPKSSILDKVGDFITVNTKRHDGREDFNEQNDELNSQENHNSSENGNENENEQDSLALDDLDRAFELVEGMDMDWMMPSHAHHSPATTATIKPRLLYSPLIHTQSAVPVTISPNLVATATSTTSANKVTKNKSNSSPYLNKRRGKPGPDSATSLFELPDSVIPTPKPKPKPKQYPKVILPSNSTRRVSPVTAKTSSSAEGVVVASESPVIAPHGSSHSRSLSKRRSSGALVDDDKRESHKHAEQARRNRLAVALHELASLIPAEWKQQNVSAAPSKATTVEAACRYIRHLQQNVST
Strand,fluorescence intensity [a.u.]
CTAACGAAGGTTTGTCACTACACTTACAAGCCAAGTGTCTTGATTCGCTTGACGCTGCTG,4180
TGCGCAACAACTTTTCACGTGTACTTATGTCTAGAAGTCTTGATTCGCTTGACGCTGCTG,12900
GCCGCTGCACAATCTGGCGTGCCAGTAAAGCAATATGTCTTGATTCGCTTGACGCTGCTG,5900
TTGCTGTCTTCTACCCACGTCATATCAGTGGTATTCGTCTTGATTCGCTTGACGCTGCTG,5200
AAATTACTAAGTTAGCACGTGTTTTACCCCGTATGAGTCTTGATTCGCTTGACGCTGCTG,18800
CTTCTGTAAATTTGCGATGTGGGTGGACGCGCCCCGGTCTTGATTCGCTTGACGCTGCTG,4110
GTCTTGTCTCATTGGGTGGTGGGTGTCCCCACTTCAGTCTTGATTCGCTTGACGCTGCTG,4840
AACTAAGAGAAATTGAACGTGGTCGCGATCTTTTAGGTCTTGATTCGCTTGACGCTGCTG,10400
GATCCCAGGGAGCGCCTCGTGCCCCAGTGACACACTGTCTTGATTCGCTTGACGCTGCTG,12200
TGTCCCTCTATTAACACCGTGATGGTCAAATCAAACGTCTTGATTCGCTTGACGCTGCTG,6410
TCCACTGAGATGACTACTGTGACGGGTACCAACGGTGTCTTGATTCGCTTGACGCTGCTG,4080

# Block 3
# Target: Prothrombin, mature alpha-thrombin (F2, Homo sapiens, UniProt P00734)
# Technique: aptamer microarray, sandwich
# Form: DNA with 2'F-ANA
# Medium: in vitro
# Concentration: 200 nM
# Setting: whole 15-mer aptamer, many near background
# Added: Cy3 exosite-II aptamer, 400 nM
# Reading: higher = stronger binding
# Strand: GGTTGGTGTGGTTGG
Modification,mean fluorescence intensity [a.u.]
2'F-ANA at 2 6 7 8 9 11 12 13 14,138
2'F-ANA at 1 6 7 10 11 13 14,57.5
2'F-ANA at 2 5 8 10 13 14 15,46.9
2'F-ANA at 4 6 8 10 11 12 13 14,90.2
2'F-ANA at 3 5 10 11 13 14,50.5
2'F-ANA at 1 5 7 8 10 12 15,58.6
2'F-ANA at 1 2 5 8 10 13,159
2'F-ANA at 2 5 6 9 11,64.6
2'F-ANA at 2 9 11 15,519

# Mixed results
Substance,target,assay,test system,setting,how to read,quantity,result
"PhoQ, residues 284 288 289 292 302 303 GNNTDL","PhoP, residues 12 14 15 18 19 LYFRQ (Escherichia coli, UniProt P23836)","Sort-seq, measured: YFP reporter",E. coli,"PhoQ-PhoP variant library, added: 10 µM Mg2+","baseline: high Mg2+ state, higher = stronger signaling",fold induction,3.87

# Excerpt of the above (block 3):
Modification,mean fluorescence intensity [a.u.]
2'F-ANA at 1 5 7 8 10 12 15,58.6
2'F-ANA at 1 2 5 8 10 13,159
2'F-ANA at 4 6 8 10 11 12 13 14,90.2
2'F-ANA at 2 5 6 9 11,64.6
